Published values of several laboratories.
Several values in a cell are separate wells, animals, samples, runs or records.
Target: Serine/threonine-protein kinase N2 (PKN2, Homo sapiens, UniProt Q16513)

| Structure (SMILES) | test | conditions | how to read | quantity | result |
| --- | --- | --- | --- | --- | --- |
| Nc1nc(Nc2ccccc2)sc1C(=O)c1ccccc1 | enzyme activity, inhibitor | 10 µM | – | remaining activity | 33% |
| C=CC(=O)N1CCCC(n2c(=O)c3ncccc3n(Cc3ccc(Oc4ccccc4)cc3)c2=O)C1 (stereo not shown) | cell-free assay, competition with immobilised ligand | 1 µM | – | remaining binding | 100% |
| O=C(Nc1ccc(Oc2ncnc3[nH]cc(-c4ccccc4)c23)c(F)c1)c1c2n(n(-c3cc(F)ccc3F)c1=O)CCCC2 | enzyme activity, inhibitor | 0.5 µM | – | inhibition | -4% |
| COc1cc(Nc2nc(C)cc(-c3cnn4nc(OC)ccc34)n2)cc(C(F)(F)F)c1 | inhibitor | 1 µM | baseline: control | remaining activity | 90% |
| Nc1ncc2c(n1)-c1c([nH]c3ccc(C4=CCOCC4)cc13)CCC2 | binding, competition with immobilised ligand | 1 µM | – | remaining binding | 100% |
| C=CC(=O)N1Cc2nc(-c3cc(-c4cc(Cl)cnc4Cl)c(F)cc3F)n(-c3ccncn3)c2C1 | cell-free assay, inhibitor | 1 µM | – | inhibition | 5% |
| Cc1ccc(-c2c(/C=C(\C#N)C(=O)NC(C)C)n(CCCO)c3ncnc(N)c23)cc1 | cell-free assay, competition with immobilised ligand | 1 µM | – | remaining binding | 98% |
| O=C(Cc1ccc(OCc2ccccc2)cc1)NC1(C(=O)O)CCN(C(=O)c2ccc(-c3cccc(Cl)c3)cc2)CC1 | enzyme activity, inhibitor | 10 µM | – | activity vs control | 112% |
| COc1c(OCCCN2CCOCC2)ccc2c1N=C(NC(=O)c1cnc(N)nc1)N1CCN=C21 | kinase activity, inhibitor | 1 µM | baseline: untreated control | remaining activity | 105% |
| O=C=[N][Ru-4]123([n]4c5ccc(O)cc5c5c6c(c7cc(F)c[n+]1c7c54)C(=O)NC6=O)[S+]1CC[S+]2CC[S+]3CC1 (stereo not shown) | enzyme activity | 100 nM, human enzyme, added: 10 µM ATP | baseline: untreated | remaining activity | 76% |
| NC(=O)C[C@H]1CCc2sc3ncnc(O[C@H]4CC[C@H](N5CCOCC5)CC4)c3c21 | enzyme activity, inhibitor | 10 µM | – | inhibition | -7% |
| O=c1c(-c2ccc(Cl)c(CN3CCOCC3)c2)coc2cc(O)ccc12 | enzyme activity, inhibitor | 1 µM | – | remaining activity | 119% |
| CNC(=O)C1CCN(c2cc(C)c(F)cc2NC(=O)c2ccc(-c3cc(O)ccc3C)c(C)c2)CC1 | binding, competition with immobilised ligand | 1 µM | – | remaining binding | 100% |
| COCC12C(=O)NC3C4(C(OC)CC1O)C1CC5(O)C(OC)C(O)C(OC(C)=O)(C1C5OC(=O)c1ccccc1)C3(O)C(OC)C24 (stereo not shown) | kinase activity, inhibitor, ProQinase kinase profiling | 25 µM | baseline: control | remaining activity | 97% and 94% |
| Cc1cccc(-c2ccc3nc(NC(=O)C4CCCCC4)nn3c2)c1 | enzyme activity, Dundee kinase panel | 10 µM | – | remaining activity | 98% |
| Cc1cccc(O[C@H]2CCC[C@@H](C(C)CNCc3ccncc3)C2)c1 (relative stereo) | enzyme activity, inhibitor | 10 µM | – | inhibition | 0% |
| C=CC(=O)Nc1cccc(-c2cnc3[nH]cc(C(=O)NC(C)(C)C)c3n2)c1 | enzyme activity, inhibitor | 0.1 µM | – | inhibition | 17% |
| CCN1CCN(Cc2ccc(C(=O)Nc3ccc(C)c(NCc4cnc5[nH]ccc5c4OC)c3)cc2C(F)(F)F)CC1 | binding, competition with immobilised ligand | 1 µM | – | remaining binding | 58% |
| Cc1cccc(-c2ccc3nc(NC(=O)C4CCCO4)nn3c2)c1 (stereo not shown) | enzyme activity, Dundee kinase panel | 10 µM | – | remaining activity | 84% |
